Measurements pooled from the literature.
Each numbered part is a random draw from the data of one study; scales do not carry over between parts. Substitutions count along the parent as printed.

Block 1
Target: Sal-like protein 4, full length isoform B (SALL4, Homo sapiens, UniProt Q9UJQ4-2, residues 1-616)
Method: universal PBM
Form: double-stranded DNA, one strand shown
Sample: in vitro
Tested at: not given
Notes: 8-mer, flanks averaged, mean of replicates
Direction: higher = stronger binding
For `AGCGGCCA`, the E-score was -0.305.
`CCACTGAG` gave an E-score of -0.267.
The E-score of `GCAATGAA` is reported as 0.0693.
`CGTGTTGA` has an E-score of 0.018.
With `CCGCTACC` the E-score was -0.244.
For `GCGCGGAA`, the E-score was -0.386.
With `AAAACAAA` the E-score was 0.28.
`ACCTGTTA` has an E-score of 0.0749.
With `ACGTCCTA` the E-score was -0.00655.
With `ACCAAAGG` the E-score was -0.0924.
`ATACTCAA` gave an E-score of 0.198.
For `ACCAATCA`, the E-score was 0.044.
`GGCCGCAC` has an E-score of -0.226.
The E-score of `CGTCTCTA` is reported as -0.204.
`ATACTAGC` gave an E-score of 0.0448.
The E-score of `CCCCGTCG` is reported as -0.346.
`GAGTACTA` gave an E-score of 0.16.
The E-score of `GACCACTC` is reported as -0.175.
`ATGGGTTA` has an E-score of 0.139.
`AGCGCCAA` has an E-score of -0.0418.
`CCCTAGCC` has an E-score of -0.243.
`ACCACCAC` has an E-score of 0.0411.
`AAGCTGCT` has an E-score of -0.276.
The E-score of `TAACGATA` is reported as 0.226.
With `ACTCGCGA` the E-score was -0.0838.

Block 2
Target: CEP164, C-terminal peptide (human)
Method: DHFR complementation, deep sequencing
Sample: yeast
Notes: single substitutions, model-inferred values
Baseline: wild type
Direction: higher = weaker binding
Parent: PDZK1, PDZ domain 2 (human); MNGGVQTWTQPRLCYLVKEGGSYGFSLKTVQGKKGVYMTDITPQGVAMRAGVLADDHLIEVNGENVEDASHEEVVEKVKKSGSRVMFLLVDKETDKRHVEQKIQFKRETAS; partner HNRVKVYRF
`V30R`: “binding free energy change” 0.299 kcal/mol.
For `V30P`, “binding free energy change” read 1.07 kcal/mol.
Under “binding free energy change”, `S111N` is recorded as -0.0398 kcal/mol.
For `T94M`, “binding free energy change” read -0.0305 kcal/mol.
`H57N` — result for “binding free energy change”: 0.028 kcal/mol.
Under “binding free energy change”, `K77W` is recorded as 0.528 kcal/mol.
`T109E` — result for “binding free energy change”: -0.258 kcal/mol.
Under “binding free energy change”, `A69H` is recorded as -0.188 kcal/mol.
For `Q6R`, “binding free energy change” read -0.125 kcal/mol.
`D91S`: “binding free energy change” -0.21 kcal/mol.
`C14N` — result for “binding free energy change”: 1.32 kcal/mol.
`G20R`: “binding free energy change” 0.109 kcal/mol.
Under “binding free energy change”, `M1H` is recorded as -0.119 kcal/mol.
`A47M`: “binding free energy change” 2.08 kcal/mol.
`A47N`: “binding free energy change” 1.56 kcal/mol.
`G45K` — result for “binding free energy change”: 1.01 kcal/mol.
For `E108A`, “binding free energy change” read -0.184 kcal/mol.
`G45Y` — result for “binding free energy change”: 1.51 kcal/mol.
`F87Q`: “binding free energy change” 1.55 kcal/mol.

Block 3
Target: Centromere-binding protein 1, full length, His-tagged (CBF1, Saccharomyces cerevisiae, UniProt P17106, residues 1-351)
Chain of UniProt P17106 (whole entry, looked up): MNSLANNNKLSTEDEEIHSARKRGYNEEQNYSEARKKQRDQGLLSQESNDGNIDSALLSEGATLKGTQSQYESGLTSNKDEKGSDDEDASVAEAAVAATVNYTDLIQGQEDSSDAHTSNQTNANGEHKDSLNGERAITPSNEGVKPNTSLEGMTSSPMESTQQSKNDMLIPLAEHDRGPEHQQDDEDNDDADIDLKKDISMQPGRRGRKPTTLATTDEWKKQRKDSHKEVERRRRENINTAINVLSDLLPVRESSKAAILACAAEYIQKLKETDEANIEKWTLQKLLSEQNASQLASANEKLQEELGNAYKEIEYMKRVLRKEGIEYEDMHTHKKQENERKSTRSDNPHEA
Method: competition protein-binding microarray
Form: double-stranded DNA, one strand shown
Sample: in vitro
Tested at: 2 µM
Notes: whole 60-bp probe, lowest competitor level
Added: Pho4 competitor, 0.05 µM
Direction: higher = stronger binding
For `TGCCTCTTTTTTCTACACATGCAGTGTTAAATCCCAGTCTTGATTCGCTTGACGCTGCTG`, the fluorescence intensity was 105 a.u.
For `TCATAGAAGGAAAAGCACATGGTACCCAGGCAGAGTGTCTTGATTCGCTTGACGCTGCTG`, the fluorescence intensity was 117 a.u.
`CTGTAGTAACAAAAACATGTGGGATGCCAAATTGTAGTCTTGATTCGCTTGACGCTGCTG` gave a fluorescence intensity of 107 a.u.
The fluorescence intensity of `CAAGCGGAGGAGCAACACGTGGCCCAGCAAAAGGAGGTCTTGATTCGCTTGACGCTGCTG` is reported as 1370 a.u.
The fluorescence intensity of `TGCCATCATCAATTGCACGTTTTCAAGTATTTATAAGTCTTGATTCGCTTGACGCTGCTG` is reported as 193 a.u.
`GATAAGCTAACGAACCTCATGACGCACAAGGACGAAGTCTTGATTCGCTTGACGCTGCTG` has a fluorescence intensity of 97.2 a.u.
The fluorescence intensity of `GGTTGGCTCTGGTAACGCATGACAGGGTATGAAAAAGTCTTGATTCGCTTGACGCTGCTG` is reported as 110 a.u.
For `ATGCCAATAGAGCCGCACATGTAATTACTGGTTGACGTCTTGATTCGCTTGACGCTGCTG`, the fluorescence intensity was 94.3 a.u.
The fluorescence intensity of `CTGCTTTAGAATTTGTCCGTGACGGGTACTCTAACAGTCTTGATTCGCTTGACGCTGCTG` is reported as 91.5 a.u.
`AAATTACTAAGTTGGTGTGTGGGTGACGCCGTATGAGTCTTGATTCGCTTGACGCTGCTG` gave a fluorescence intensity of 78.6 a.u.
`AAACAAACTACATCGCACGTGACGGATAACTATACGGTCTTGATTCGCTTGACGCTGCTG` gave a fluorescence intensity of 5680 a.u.
For `CCATATTGGATTACCCACGTCGCCGCGACAGGCCTTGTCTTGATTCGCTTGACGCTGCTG`, the fluorescence intensity was 66.2 a.u.
`TGCGCAACAACTTTTCACGTGGAGTTATGTCTAGAAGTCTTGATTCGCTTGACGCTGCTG` has a fluorescence intensity of 548 a.u.
`AAAGCGGTAATTTGTCACTTTACTTCACATATCTATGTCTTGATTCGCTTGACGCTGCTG` has a fluorescence intensity of 86.9 a.u.
`CTTCTGTAAATTTGGTACGTGGGTGGACGCGCCCCGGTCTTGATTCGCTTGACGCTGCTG` has a fluorescence intensity of 94.8 a.u.
`CTTCTGTAAATTTGCATAGTGGGTGGACGCGCCCCGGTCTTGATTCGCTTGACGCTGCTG` gave a fluorescence intensity of 76.4 a.u.
`GTCTTGTCTCATTGTCACGTCACTTTCCCCACTTCAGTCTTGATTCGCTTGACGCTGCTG` has a fluorescence intensity of 176 a.u.
`AAATTACTAAGTTGCTCTGTGGGTGACGCCGTATGAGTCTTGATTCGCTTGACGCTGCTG` has a fluorescence intensity of 62.6 a.u.
With `TAGAGCTTGCCTCGTCAGGTGATGACAAGTTGTAAAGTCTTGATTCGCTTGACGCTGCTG` the fluorescence intensity was 888 a.u.
The fluorescence intensity of `AAATTACTAAGTTTTCACGTGGGTTACCCCGTATGAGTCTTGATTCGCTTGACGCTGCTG` is reported as 715 a.u.
`GACCAGGAAAAAGATAGCGTGCAAAGCAGGACGATAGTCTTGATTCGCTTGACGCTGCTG` has a fluorescence intensity of 76.4 a.u.

Block 4
Target: CCNF, cyclin fold, Cln2 fusion (human)
Method: yeast growth competition, sequencing
Sample: yeast
Notes: strong parent motif
Baseline: not given
Direction: higher = stronger binding
Parent: WEE1 docking peptide (human); CTLRQKLIFSPCS; partner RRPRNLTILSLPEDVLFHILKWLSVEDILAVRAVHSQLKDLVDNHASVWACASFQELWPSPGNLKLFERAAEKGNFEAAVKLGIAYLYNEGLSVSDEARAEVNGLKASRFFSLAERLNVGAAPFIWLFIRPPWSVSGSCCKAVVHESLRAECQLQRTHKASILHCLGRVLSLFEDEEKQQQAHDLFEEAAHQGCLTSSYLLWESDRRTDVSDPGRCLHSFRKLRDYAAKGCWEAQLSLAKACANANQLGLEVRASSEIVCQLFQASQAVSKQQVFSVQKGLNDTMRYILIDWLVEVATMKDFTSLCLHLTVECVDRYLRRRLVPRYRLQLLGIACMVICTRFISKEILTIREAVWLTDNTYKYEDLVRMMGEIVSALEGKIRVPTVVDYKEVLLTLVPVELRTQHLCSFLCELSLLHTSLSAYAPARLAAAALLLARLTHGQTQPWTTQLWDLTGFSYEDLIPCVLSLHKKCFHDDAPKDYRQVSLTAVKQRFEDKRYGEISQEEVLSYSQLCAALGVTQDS
`CTLRQKLAFSPCS [I8A]` — result for “normalised enrichment score”: 2.36.
For `CTLRQKLIASPCS [F9A]`, “normalised enrichment score” read 0.0636.
For `CTLRQKAIFSPCS [L7A]`, “normalised enrichment score” read 0.589.
`ATLRQKLIFSPCS [C1A]`: “normalised enrichment score” 3.43.
For `CTLAQKLIFSPCS [R4A]`, “normalised enrichment score” read 2.59.
Under “normalised enrichment score”, `CTLRQKLIFAPCS [S10A]` is recorded as 2.54.
For `CALRQKLIFSPCS [T2A]`, “normalised enrichment score” read 3.86.

Block 5
Target: CEBPD, bZIP domain (human)
Method: DHFR protein complementation
Sample: yeast
Notes: single substitutions, most at no-binding floor
Baseline: wild-type JUN-FOS pair
Direction: higher = stronger binding
Parent: JUN, bZIP domain (human); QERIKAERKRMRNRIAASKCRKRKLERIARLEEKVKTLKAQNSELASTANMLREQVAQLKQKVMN; partner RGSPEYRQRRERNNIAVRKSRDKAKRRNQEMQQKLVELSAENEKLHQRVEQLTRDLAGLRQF
`T37V` gave a binding fitness of -1.39 natural log.
`K39N` has a binding fitness of -1.46 natural log.
`Q55H` gave a binding fitness of -1.52 natural log.
`K36E` has a binding fitness of -1.38 natural log.
The binding fitness of `E44W` is reported as -1.4 natural log.
With `T48Y` the binding fitness was -1.4 natural log.
`A57S` gave a binding fitness of -1.42 natural log.
With `N42M` the binding fitness was -1.45 natural log.
With `K39E` the binding fitness was -1.2 natural log.
The binding fitness of `V35F` is reported as -1.35 natural log.
The binding fitness of `L45A` is reported as -1.46 natural log.
With `E44K` the binding fitness was -1.41 natural log.
`E54H` gave a binding fitness of -1.49 natural log.
The binding fitness of `Q55N` is reported as -1.45 natural log.
`T37Q` gave a binding fitness of -1.24 natural log.
With `K34R` the binding fitness was -1.35 natural log.
`K34V` has a binding fitness of -1.38 natural log.
`T48Q` has a binding fitness of -1.27 natural log.
`K36D` gave a binding fitness of -1.32 natural log.
`M51C` gave a binding fitness of -1.37 natural log.
With `L52H` the binding fitness was -1.48 natural log.
For `L38Q`, the binding fitness was -1.57 natural log.
`E54D` has a binding fitness of -1.46 natural log.
`I28S` gave a binding fitness of -1.33 natural log.
`R53H` has a binding fitness of -1.33 natural log.

Further values, each from its own experiment
For `PhoQ, residues 284 288 289 292 302 303 DDMDFR`, the fold induction was 0.679 (PhoP, residues 12 14 15 18 19 LQHIR (Escherichia coli, UniProt P23836); Sort-seq, refers to: YFP reporter; E. coli; PhoQ-PhoP variant library, added: 10 µM Mg2+; baseline: high Mg2+ state, higher = stronger signaling).

For quick reference, copied from above (block 3):
For `ATGCCAATAGAGCCGCACATGTAATTACTGGTTGACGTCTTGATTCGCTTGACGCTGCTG`, the fluorescence intensity was 94.3 a.u.
The fluorescence intensity of `CTGCTTTAGAATTTGTCCGTGACGGGTACTCTAACAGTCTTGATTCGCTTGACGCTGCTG` is reported as 91.5 a.u.
`AAATTACTAAGTTGGTGTGTGGGTGACGCCGTATGAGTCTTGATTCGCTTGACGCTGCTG` gave a fluorescence intensity of 78.6 a.u.
`AAACAAACTACATCGCACGTGACGGATAACTATACGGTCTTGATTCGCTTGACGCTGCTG` gave a fluorescence intensity of 5680 a.u.
For `CCATATTGGATTACCCACGTCGCCGCGACAGGCCTTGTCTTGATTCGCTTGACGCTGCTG`, the fluorescence intensity was 66.2 a.u.
`TGCGCAACAACTTTTCACGTGGAGTTATGTCTAGAAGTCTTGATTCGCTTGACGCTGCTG` has a fluorescence intensity of 548 a.u.
`AAAGCGGTAATTTGTCACTTTACTTCACATATCTATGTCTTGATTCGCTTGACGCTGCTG` has a fluorescence intensity of 86.9 a.u.
`CTTCTGTAAATTTGGTACGTGGGTGGACGCGCCCCGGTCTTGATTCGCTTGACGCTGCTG` has a fluorescence intensity of 94.8 a.u.
`CTTCTGTAAATTTGCATAGTGGGTGGACGCGCCCCGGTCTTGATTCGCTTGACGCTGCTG` gave a fluorescence intensity of 76.4 a.u.
`GTCTTGTCTCATTGTCACGTCACTTTCCCCACTTCAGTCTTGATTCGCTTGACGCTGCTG` has a fluorescence intensity of 176 a.u.
`AAATTACTAAGTTGCTCTGTGGGTGACGCCGTATGAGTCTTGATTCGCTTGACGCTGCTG` has a fluorescence intensity of 62.6 a.u.
With `TAGAGCTTGCCTCGTCAGGTGATGACAAGTTGTAAAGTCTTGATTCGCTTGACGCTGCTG` the fluorescence intensity was 888 a.u.
The fluorescence intensity of `AAATTACTAAGTTTTCACGTGGGTTACCCCGTATGAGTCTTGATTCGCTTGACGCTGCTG` is reported as 715 a.u.
